Published values from different studies.
Parts stem from different laboratories: compare values within a part only.
Chain of UniProt Q9NSY1 (whole entry, looked up): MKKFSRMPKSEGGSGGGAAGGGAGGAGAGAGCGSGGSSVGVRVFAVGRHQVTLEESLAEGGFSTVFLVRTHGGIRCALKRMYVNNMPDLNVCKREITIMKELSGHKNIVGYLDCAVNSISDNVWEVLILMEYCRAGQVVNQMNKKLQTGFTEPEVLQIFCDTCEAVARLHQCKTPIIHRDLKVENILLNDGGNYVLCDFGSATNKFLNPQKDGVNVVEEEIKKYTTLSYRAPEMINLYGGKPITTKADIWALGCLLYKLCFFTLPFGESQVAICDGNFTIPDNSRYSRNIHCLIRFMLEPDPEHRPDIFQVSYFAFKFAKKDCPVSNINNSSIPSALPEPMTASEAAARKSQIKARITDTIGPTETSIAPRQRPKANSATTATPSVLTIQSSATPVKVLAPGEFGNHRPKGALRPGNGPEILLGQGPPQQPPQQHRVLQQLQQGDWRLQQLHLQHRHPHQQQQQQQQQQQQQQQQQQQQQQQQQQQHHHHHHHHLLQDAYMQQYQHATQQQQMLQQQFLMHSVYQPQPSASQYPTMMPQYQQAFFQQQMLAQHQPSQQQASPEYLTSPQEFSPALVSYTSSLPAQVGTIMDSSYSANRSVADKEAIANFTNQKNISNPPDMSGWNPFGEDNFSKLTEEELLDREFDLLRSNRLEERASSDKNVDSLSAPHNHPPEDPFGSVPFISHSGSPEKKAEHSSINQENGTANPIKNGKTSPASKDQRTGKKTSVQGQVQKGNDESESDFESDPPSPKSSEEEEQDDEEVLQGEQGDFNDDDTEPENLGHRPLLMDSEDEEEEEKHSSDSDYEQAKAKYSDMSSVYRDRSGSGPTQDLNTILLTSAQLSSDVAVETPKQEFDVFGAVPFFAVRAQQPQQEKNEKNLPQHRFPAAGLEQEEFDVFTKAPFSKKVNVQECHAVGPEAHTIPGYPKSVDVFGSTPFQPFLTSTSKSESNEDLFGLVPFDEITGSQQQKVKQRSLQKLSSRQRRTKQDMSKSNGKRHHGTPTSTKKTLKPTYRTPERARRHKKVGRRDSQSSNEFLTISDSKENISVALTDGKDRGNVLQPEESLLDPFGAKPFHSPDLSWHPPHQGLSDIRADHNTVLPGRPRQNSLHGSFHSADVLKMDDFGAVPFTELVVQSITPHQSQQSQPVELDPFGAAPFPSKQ
Chain of UniProt P19784 (whole entry, looked up): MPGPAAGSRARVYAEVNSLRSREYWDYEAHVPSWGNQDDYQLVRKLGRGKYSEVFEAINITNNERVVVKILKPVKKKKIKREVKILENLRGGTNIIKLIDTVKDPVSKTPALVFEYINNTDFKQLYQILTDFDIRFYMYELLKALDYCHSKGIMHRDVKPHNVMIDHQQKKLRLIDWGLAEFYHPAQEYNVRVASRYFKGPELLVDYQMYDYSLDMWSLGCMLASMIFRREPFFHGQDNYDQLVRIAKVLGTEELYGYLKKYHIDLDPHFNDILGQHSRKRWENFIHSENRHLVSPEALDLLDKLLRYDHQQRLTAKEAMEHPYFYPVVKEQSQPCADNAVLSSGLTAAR
Chain of UniProt Q86YV6 (whole entry, looked up): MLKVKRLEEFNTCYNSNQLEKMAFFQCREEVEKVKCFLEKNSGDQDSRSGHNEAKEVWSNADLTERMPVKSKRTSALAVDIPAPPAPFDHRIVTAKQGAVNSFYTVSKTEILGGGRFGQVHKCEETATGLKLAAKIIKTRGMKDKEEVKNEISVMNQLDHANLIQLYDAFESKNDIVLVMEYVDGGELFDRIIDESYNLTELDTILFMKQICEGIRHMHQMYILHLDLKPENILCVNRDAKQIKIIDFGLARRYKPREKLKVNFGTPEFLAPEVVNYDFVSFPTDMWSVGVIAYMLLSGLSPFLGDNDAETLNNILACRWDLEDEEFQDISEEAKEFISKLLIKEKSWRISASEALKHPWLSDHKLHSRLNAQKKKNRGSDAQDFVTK

Series 1
Target: Diamine acetyltransferase 1 (Homo sapiens, UniProt P21673)
Action: inhibitor
Tested at: 10 µM
Relative to: control
Construct (P21673 1-171): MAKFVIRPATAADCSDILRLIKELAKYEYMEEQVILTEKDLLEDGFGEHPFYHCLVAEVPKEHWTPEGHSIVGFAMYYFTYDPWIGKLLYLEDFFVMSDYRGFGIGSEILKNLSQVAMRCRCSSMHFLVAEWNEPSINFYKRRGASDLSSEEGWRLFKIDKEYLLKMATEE
Structure (SMILES) | remaining activity [%]
N[C@H](Cc1ccccc1)C(=O)O | 109
C[C@@H]1O[C@@H](O[C@H]2C(=O)c3c(O)cc(O)cc3O[C@@H]2c2ccc(O)c(O)c2)[C@H](O)[C@H](O)[C@H]1O | 84.8
O=c1c(O[C@@H]2O[C@H](CO)[C@@H](O)[C@H](O)[C@H]2O[C@@H]2O[C@H](CO)[C@@H](O)[C@H](O)[C@H]2O)c(-c2ccc(O)cc2)oc2cc(O)cc(O)c12 | 73.9
Cc1cc(O)c2c(c1)C(=O)c1cccc(O)c1C2=O | 93.4
COc1cc(/C=C/C(=O)N2CCC=CC2=O)cc(OC)c1OC | 111
COc1ccc(-c2oc3cc(OC)cc(O)c3c(=O)c2O)cc1 | 103
C=C(C)C1CC=C(C)[C@@H](O)C1 (stereo partly drawn) | 88.1
COC(=O)C=Cc1ccc(O)cc1 | 111
COc1c(CC=C(C)C)c(O)cc2oc(=O)c3c4ccc(O)cc4oc3c12 | 102
C=CCc1ccc(OC)c(OC)c1 | 102
C=C(C)[C@@H]1CCC2=CC(=O)C[C@@H](C)[C@]2(C)C1 | 100
O=C1C[C@@H](c2ccc(O[C@@H]3O[C@H](CO)[C@@H](O)[C@H](O)[C@H]3O[C@@H]3OC[C@](O)(CO)[C@H]3O)cc2)Oc2cc(O)ccc21 | 88.5
C[N+](C)(C)C[C@H](O)CC(=O)[O-] | 94.3
C/C=C/C=C/C=C/CC/C=C/C(=O)NCC(C)(C)O | 112
CCCCCCCCCCCC(=O)OC | 76.7
COc1c(-c2ccccc2)oc2cc(O)cc(O)c2c1=O | 83.9
CCCCCCCCO | 104

Series 2
Structure (SMILES): C=CCc1ccc(O)c(-c2cc(CC=C)ccc2O)c1
Effect on: chloride current
Method: whole-cell voltage clamp
ANO1 del476-501/F646A: Anoctamin-1 (ANO1, Homo sapiens, UniProt Q5XXA6, del476-501/F646A)
Chain of UniProt Q5XXA6 (whole entry, unmodified, looked up): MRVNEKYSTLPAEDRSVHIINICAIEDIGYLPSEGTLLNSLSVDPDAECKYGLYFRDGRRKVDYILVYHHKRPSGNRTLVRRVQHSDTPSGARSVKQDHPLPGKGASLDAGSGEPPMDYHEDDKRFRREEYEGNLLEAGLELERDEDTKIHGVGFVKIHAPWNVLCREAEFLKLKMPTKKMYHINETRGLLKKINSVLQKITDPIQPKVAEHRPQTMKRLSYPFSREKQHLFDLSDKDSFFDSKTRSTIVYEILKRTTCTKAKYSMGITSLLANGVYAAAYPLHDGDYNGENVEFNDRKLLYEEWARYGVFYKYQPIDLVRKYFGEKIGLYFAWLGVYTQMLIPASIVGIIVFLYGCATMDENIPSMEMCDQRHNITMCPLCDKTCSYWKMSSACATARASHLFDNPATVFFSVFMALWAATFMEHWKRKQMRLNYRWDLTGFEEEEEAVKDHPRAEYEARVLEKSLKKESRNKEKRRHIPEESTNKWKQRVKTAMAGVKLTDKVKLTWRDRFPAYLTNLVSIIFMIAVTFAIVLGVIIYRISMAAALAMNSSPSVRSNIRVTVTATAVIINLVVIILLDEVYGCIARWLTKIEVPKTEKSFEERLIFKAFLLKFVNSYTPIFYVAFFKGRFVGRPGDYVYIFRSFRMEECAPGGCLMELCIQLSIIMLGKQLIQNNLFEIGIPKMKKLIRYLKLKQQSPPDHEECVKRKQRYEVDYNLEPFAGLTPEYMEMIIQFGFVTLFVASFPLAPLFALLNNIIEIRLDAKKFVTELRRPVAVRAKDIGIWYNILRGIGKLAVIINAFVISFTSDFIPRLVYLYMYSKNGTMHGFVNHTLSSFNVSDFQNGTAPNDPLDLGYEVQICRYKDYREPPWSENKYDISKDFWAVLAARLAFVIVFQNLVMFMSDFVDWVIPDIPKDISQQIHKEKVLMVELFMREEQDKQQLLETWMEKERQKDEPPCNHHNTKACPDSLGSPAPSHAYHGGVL
ANO1 del476-501/F627A: Anoctamin-1 (ANO1, Homo sapiens, UniProt Q5XXA6, del476-501/F627A)
target | action | tested at | notes | added | IC50
Anoctamin-1 (ANO1, Homo sapiens, UniProt Q5XXA6, del476-501/E649I) | inhibitor | – | E623I mutant at 80 mV | – | 120 µM
Anoctamin-1 (ANO1, Homo sapiens, UniProt Q5XXA6, del476-501/E649K) | inhibitor | – | E623K mutant at 60 mV | – | 117 µM
ANO1 del476-501/F646A | – | – | membrane voltage -80 mV | – | 24 µM
Anoctamin-1 (ANO1, Homo sapiens, UniProt Q5XXA6, del476-501/M544A) | – | – | membrane voltage -40 mV | – | 92 µM
Anoctamin-1 (ANO1, Homo sapiens, UniProt Q5XXA6, del476-501/R561A) | – | – | membrane voltage 80 mV | – | 26.8 µM
Anoctamin-1 (ANO1, Homo sapiens, UniProt Q5XXA6, del476-501/F807A) | – | – | membrane voltage -20 mV | – | 18.1 µM
Anoctamin-1 (ANO1, Homo sapiens, UniProt Q5XXA6, del476-501/E650A) | – | – | membrane voltage -20 mV | – | 18 µM
Anoctamin-1 (ANO1, Homo sapiens, UniProt Q5XXA6, del476-501) | inhibitor | – | wild type | 300 nM Ca2+ | 30.6 µM
Anoctamin-1 (ANO1, Homo sapiens, UniProt Q5XXA6, del476-501/R541D) | inhibitor | – | mutant R515D | – | 187 µM
Anoctamin-1 (ANO1, Homo sapiens, UniProt Q5XXA6, del476-501/M544V) | inhibitor | 20 mV holding voltage | – | – | 65.4 µM
ANO1 del476-501/F627A | – | – | membrane voltage -60 mV | – | 28.1 µM
ANO1 del476-501/F627A | inhibitor | – | mutant F601A at 100 mV | 300 nM Ca2+ | 27.7 µM
ANO1 del476-501/F646A | – | – | membrane voltage -100 mV | – | 29.7 µM
Anoctamin-1 (ANO1, Homo sapiens, UniProt Q5XXA6, del476-501/L548A) | – | – | membrane voltage -80 mV | – | 47.4 µM
Anoctamin-1 (ANO1, Homo sapiens, UniProt Q5XXA6, del476-501/M544I) | inhibitor | 40 mV holding voltage | – | – | 228 µM

Series 3
Target: DDB1- and CUL4-associated factor 1 (DCAF1, Homo sapiens, UniProt Q9Y4B6)
Chain of UniProt Q9Y4B6 (whole entry, looked up): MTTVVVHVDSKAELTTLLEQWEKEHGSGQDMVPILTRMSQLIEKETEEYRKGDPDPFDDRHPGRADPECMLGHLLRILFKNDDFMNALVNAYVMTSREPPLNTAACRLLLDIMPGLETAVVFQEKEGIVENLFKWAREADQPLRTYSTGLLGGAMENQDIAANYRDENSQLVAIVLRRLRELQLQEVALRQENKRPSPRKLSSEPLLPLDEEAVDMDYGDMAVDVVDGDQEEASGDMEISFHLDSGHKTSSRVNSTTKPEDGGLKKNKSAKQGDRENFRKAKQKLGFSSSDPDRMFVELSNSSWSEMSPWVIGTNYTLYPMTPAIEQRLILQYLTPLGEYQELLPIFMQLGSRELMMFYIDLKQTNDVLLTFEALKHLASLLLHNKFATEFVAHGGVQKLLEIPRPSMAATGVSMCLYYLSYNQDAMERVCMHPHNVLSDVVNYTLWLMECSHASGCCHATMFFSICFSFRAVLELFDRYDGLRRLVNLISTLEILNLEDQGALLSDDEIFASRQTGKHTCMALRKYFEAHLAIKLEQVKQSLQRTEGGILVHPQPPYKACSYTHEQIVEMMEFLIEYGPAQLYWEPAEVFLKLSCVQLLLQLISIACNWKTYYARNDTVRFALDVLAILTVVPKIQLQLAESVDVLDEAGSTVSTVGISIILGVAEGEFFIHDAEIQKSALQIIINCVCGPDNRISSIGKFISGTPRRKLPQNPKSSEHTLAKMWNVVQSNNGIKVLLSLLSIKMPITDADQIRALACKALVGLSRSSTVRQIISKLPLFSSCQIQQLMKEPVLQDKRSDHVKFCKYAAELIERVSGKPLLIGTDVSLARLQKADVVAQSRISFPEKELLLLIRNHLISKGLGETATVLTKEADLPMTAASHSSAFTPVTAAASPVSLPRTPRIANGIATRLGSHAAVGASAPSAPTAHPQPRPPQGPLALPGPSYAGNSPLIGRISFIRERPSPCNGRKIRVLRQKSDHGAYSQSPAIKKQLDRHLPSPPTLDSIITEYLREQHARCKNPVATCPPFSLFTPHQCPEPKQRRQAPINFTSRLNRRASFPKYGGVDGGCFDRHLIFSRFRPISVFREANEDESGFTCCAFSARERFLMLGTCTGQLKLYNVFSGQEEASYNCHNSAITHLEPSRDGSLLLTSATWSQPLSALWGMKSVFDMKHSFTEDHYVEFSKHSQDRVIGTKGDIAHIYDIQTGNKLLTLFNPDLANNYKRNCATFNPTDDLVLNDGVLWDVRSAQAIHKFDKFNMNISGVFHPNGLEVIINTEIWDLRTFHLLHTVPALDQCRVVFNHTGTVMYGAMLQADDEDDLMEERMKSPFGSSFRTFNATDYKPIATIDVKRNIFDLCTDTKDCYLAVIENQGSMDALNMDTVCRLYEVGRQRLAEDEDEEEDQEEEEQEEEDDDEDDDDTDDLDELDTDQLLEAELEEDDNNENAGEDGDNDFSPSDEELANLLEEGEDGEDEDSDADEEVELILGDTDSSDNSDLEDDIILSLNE
Method: SPR
Tested at: concentration not given
SMILES | binding [%]
C[C@@H]1CN(c2ccc(-c3cc(C(=O)NCCOCCOCCOCCOCCOCCOCCNC(=O)/C=C/c4[nH]cc(C(=O)N[C@@H](CC(N)=O)c5ccc(F)c(Cl)c5)c4-c4ccc(Cl)cc4F)ccc3F)cc2NC(=O)c2ccc(F)cc2C(F)(F)F)C[C@H](C)N1C | 20.3
C[C@@H]1CN(c2ccc(-c3cc(C(=O)NCCCNC(=O)/C=C/c4[nH]cc(C(=O)N[C@@H](CC(N)=O)c5ccc(F)c(Cl)c5)c4-c4ccc(Cl)cc4F)ccc3F)cc2NC(=O)c2c[nH]c(=O)cc2C(F)(F)F)C[C@H](C)N1C | 73.4
C[C@@H]1CN(c2ccc(-c3cc(C(=O)NCCOCCOCCOCCOCCNC(=O)Cn4cc(-c5[nH]cc(C(=O)N[C@@H](CC(N)=O)c6ccc(F)c(Cl)c6)c5-c5ccc(Cl)cc5F)cn4)ccc3F)cc2NC(=O)c2c[nH]c(=O)cc2C(F)(F)F)C[C@H](C)N1C | 74.3

Series 4
SMILES: CC1=C(C#N)C(c2ccc3c(c2)c(NC(=O)c2ccccc2C)nn3C)C(C#N)=C(C)N1
Effect on: cell-free assay
Method: competition with immobilised ligand
Tested at: 1 µM
target | remaining binding [%]
Ribosomal protein S6 kinase alpha-4, N-terminal kinase domain (RPS6KA4, Homo sapiens, UniProt O75676) | 100
MAP3K1 (Homo sapiens, UniProt Q13233) | 51
EGFR (Homo sapiens, UniProt P00533, del747-750/T751S) | 78
WNK3 (Homo sapiens, UniProt Q9BYP7) | 82
EPHA7 (Homo sapiens, UniProt Q15375) | 100
ERN1 (Homo sapiens, UniProt O75460) | 84
CDC42BPB (Homo sapiens, UniProt Q9Y5S2) | 100
CDK17 (Homo sapiens, UniProt Q00537) | 100
AKT2 (Homo sapiens, UniProt P31751) | 100
Ribosomal protein S6 kinase alpha-6, C-terminal kinase domain (RPS6KA6, Homo sapiens, UniProt Q9UK32) | 83
STK16 (Homo sapiens, UniProt O75716) | 83
WEE1 (Homo sapiens, UniProt P30291) | 100
NEK5 (Homo sapiens, UniProt Q6P3R8) | 100
Ribosomal protein S6 kinase alpha-2, N-terminal kinase domain (RPS6KA2, Homo sapiens, UniProt Q15349) | 83
BMP2K (Homo sapiens, UniProt Q9NSY1) | 100
BMPR2 (Homo sapiens, UniProt Q13873) | 79
CSNK2A2 (Homo sapiens, UniProt P19784) | 100
MYLK4 (Homo sapiens, UniProt Q86YV6) | 100
FGFR1 (Homo sapiens, UniProt P11362) | 97
MAP3K6 (Homo sapiens, UniProt O95382) | 71
MET (Homo sapiens, UniProt P08581, M1250T) | 27
FLT3 (Homo sapiens, UniProt P36888, D835H) | 99
MET (Homo sapiens, UniProt P08581, Y1235D) | 74
STK11 (Homo sapiens, UniProt Q15831) | 89
DYRK1B (Homo sapiens, UniProt Q9Y463) | 63

Excerpt of the above (series 4):
target | remaining binding [%]
Ribosomal protein S6 kinase alpha-6, C-terminal kinase domain (RPS6KA6, Homo sapiens, UniProt Q9UK32) | 83
STK16 (Homo sapiens, UniProt O75716) | 83
WEE1 (Homo sapiens, UniProt P30291) | 100
NEK5 (Homo sapiens, UniProt Q6P3R8) | 100
Ribosomal protein S6 kinase alpha-2, N-terminal kinase domain (RPS6KA2, Homo sapiens, UniProt Q15349) | 83
BMP2K (Homo sapiens, UniProt Q9NSY1) | 100
BMPR2 (Homo sapiens, UniProt Q13873) | 79
CSNK2A2 (Homo sapiens, UniProt P19784) | 100
